# Assay results gathered from unrelated publications.
# “And” joins repeats or separate records; there may be more than shown.
# Target: Beta-1 adrenergic receptor (ADRB1, Homo sapiens, UniProt P08588)
Structure (SMILES),assay,test system,setting,how to read,quantity,result
C[C@@H]1COCCN1c1nc(NCc2cccnc2C(F)(F)F)c2cccnc2n1,binding,,CEREP panel,,IC50,> 100 µM
Cc1cc(Nc2nc(C[C@@]3(C(=O)O)CCN(Cc4cccc(Cl)c4F)[C@H](C)C3)cc(C)c2F)[nH]n1,inhibitor,,10 µM,,inhibition,13.3%
Cc1cc(-c2ccc3ccccc3c2)nnc1NCCN1CCN(C)CC1,antagonist,,10000 nM,reference: control,activity,0%
C/C(=N\OCCCN1CCCCC1)c1ccc(C(F)(F)F)cc1,"agonist, cAMP",,10 µM,,activation,6.38%
N[C@H](C(=O)N1CCCC1)C1CCN(c2nccc3c(-c4ncc(Cl)cc4Cl)cccc23)CC1,"functional response, antagonist",,10 µM,,inhibition,21%
CS(C)(=O)=Nc1ccc(-c2ccc(-c3nc4cc(O[C@@H]5CO[C@H]6[C@@H]5OC[C@H]6O)[nH]c4cc3F)cc2)cc1,"calcium signal, antagonist",,10 µM,,inhibition,-8%
COc1ccc(F)cc1S(=O)(=O)Nc1cnc2c(c1)C(=O)NCCO2,"ligand displacement, radioligand",,10 µM,,inhibition,-1%
CCOC(=O)[C@](CC)(CCCSCCOCCOCCNC(=O)c1ccc(-c2c3ccc(=N)c(S(=O)(=O)O)c-3oc3c(S(=O)(=O)O)c(N)ccc23)c(C(=O)O)c1)NC(=O)c1ccc(C2CC2)c(Cc2ccc(F)cc2)n1,"ligand displacement, radioligand",,10 µM,,inhibition,9%
CN[C@@H]1[C@H](O)[C@H](NC)[C@H]2O[C@]3(O)[C@H](O[C@@H]2[C@H]1O)O[C@H](C)C[C@H]3NC(=O)Cc1cc(Cl)ccn1,"ligand displacement, radioligand",,10 µM,,inhibition,2%
CCc1nnc(-c2c(OC)cc(-c3cnc4cc(-c5cnn(C)c5)ccn34)cc2OC)o1,"agonist, radioligand binding",,10 µM,reference: control,specific binding,102%
Cc1sc2c(c1C)C(c1ccc(Cl)cc1)=NC(CC(=O)OC(C)(C)C)c1nnc(C)n1-2 (stereo not shown),"ligand displacement, radioligand",,1 µM,,inhibition,1%
CCN(CC)CCOc1ccc(-c2nnn(Cc3ccc(OC)cc3)c2N)cc1,radioligand binding,HEK293,"10 µM, safety profiling",,inhibition,-11.8%
O=C(O)c1ccc(-c2nc(-c3ccccc3Cl)c3sccn23)cc1,"ligand displacement, radioligand",,10 µM,,binding vs control,90.5% and 96.8%

# Some of these lines once more:
Structure (SMILES),assay,test system,setting,how to read,quantity,result
O=C(O)c1ccc(-c2nc(-c3ccccc3Cl)c3sccn23)cc1,"ligand displacement, radioligand",,10 µM,,binding vs control,90.5% and 96.8%
